Literature values that unrelated publications cite.
Compare with care: the assays were run in different laboratories. Values after ≈ are worked out from the molar mass of the structure shown.
UniProt Q8IVW4, sequence (whole entry, looked up): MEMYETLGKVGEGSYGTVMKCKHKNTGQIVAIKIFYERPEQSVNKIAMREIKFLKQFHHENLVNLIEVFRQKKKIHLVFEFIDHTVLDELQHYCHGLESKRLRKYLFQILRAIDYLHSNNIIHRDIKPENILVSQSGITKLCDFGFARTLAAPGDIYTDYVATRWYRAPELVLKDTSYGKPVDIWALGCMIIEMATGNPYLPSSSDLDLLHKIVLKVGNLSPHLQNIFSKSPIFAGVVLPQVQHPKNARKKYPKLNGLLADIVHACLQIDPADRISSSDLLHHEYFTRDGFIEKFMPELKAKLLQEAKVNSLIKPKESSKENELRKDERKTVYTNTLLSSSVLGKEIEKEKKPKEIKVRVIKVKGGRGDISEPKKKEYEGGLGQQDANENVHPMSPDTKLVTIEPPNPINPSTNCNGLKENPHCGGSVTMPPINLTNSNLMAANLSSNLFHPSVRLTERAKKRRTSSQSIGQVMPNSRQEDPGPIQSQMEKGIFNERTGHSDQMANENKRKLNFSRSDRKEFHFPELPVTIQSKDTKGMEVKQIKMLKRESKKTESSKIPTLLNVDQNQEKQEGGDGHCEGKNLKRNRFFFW

| Structure (SMILES) | tested on | assay | system | conditions | scale | measurement | result |
| --- | --- | --- | --- | --- | --- | --- | --- |
| COc1ccc2nc([S@@+]([O-])Cc3ncc(C)c(OC)c3C)[nH]c2c1 | – | – | Japanese non-obese humans | intravenous bolus, 20 mg racemic omeprazole | – | AUC | 390 ng⋅h/mL |
| O=C(c1cc(Cc2n[nH]c(=O)c3ccccc23)ccc1F)N1CCN(C(=O)C2CC2)CC1 | – | – | human | oral, dose not given, tablet | – | AUC at steady state | 58000 ng·h/mL |
| N[C@@H]1c2cccnc2[C@H](OC(=O)N2CCC(n3c(=O)[nH]c4ncccc43)CC2)CC[C@H]1c1cccc(F)c1F | – | – | human, severe hepatic impairment | oral, 75 mg | reference: normal hepatic function | AUC ratio | 2 fold |
| Cc1nc(Nc2ncc(C(=O)Nc3c(C)cccc3Cl)s2)cc(N2CCN(CCO)CC2)n1 | – | – | human | 100 mg | – | AUC | 318 ng·h/mL |
| C1=C/COCc2cc(ccc2OCCN2CCCC2)Nc2nccc(n2)-c2cccc(c2)COC/1 | – | – | human | dose not given, with: rifampicin | reference: without rifampicin | AUC decrease | 90% |
| Cn1c(=O)oc2ccc(-c3ccc(C[C@@H](C#N)NC(=O)[C@@H]4CNCCCO4)cc3)cc21 | – | – | human | dose not given, with: moderate or strong CYP3A4/P-gp inhibitor | – | AUC and Cmax | increased |
| C[C@@H](Oc1ccc(S(C)(=O)=O)cc1C(=O)N1C[C@@H]2C[C@]2(c2cc(C(F)(F)F)on2)C1)C(F)(F)F | – | – | human | oral, dose not given, tablet | reference: fasted | AUC increase with food | 25% |
| O=C(O)C[C@H](O)C[C@H](O)/C=C/c1c(C2CC2)nc2ccccc2c1-c1ccc(F)cc1 | – | – | healthy human volunteers | dose not given, with: rifampicin | reference: without rifampicin | AUC increase | 5.7 fold |
| OC(Cn1cncn1)(Cn1cncn1)c1ccc(F)cc1F | – | – | human | oral, 100 mg single dose | – | AUC | 65700 ng·h/mL |
| CNC(C)C1CCC(N)C(OC2C(N)CC(N)C(OC3OCC(C)(O)C(NC)C3O)C2O)O1 (stereo not shown) | Acinetobacter baumannii | – | clinical isolate RKI-No_14/16 | – | – | MIC | > 8 µg/mL |
| COc1cc2nccc(Oc3ccc(NC(=O)C4(C(=O)Nc5ccc(F)cc5)CC4)cc3)c2cc1OC | – | – | human | dose not given, high-fat breakfast | reference: fasted | AUC increase | 57% |
| CC(C)NC(=O)COc1cccc(-c2nc(Nc3ccc4[nH]ncc4c3)c3ccccc3n2)c1 | – | – | healthy human subjects | dose not given, with: rifampin (strong CYP3A4 inducer) | – | AUC decrease | 72% |
| CC(C)(O/N=C(\C(=O)N[C@@H]1C(=O)N2C(C(=O)[O-])=C(C[n+]3ccccc3)CS[C@H]12)c1csc(N)n1)C(=O)O | Enterobacter cloacae | – | clinical isolate RKI-No_210/15 | – | – | MIC | 4 µg/mL (≈ 7.32 µM) |
| C[C@@H](Oc1ccc(S(C)(=O)=O)cc1C(=O)N1C[C@@H]2C[C@]2(c2cc(C(F)(F)F)on2)C1)C(F)(F)F | – | – | human | oral, 25 mg single dose, with: Meal, high-fat, ~1000 kcal | reference: fasted state | AUC increase | 26% |
| Nc1cc(C(F)(F)F)c(-c2nc(N3CCOCC3)nc(N3CCOCC3)n2)cn1 | CDKL3 (Homo sapiens, UniProt Q8IVW4) | enzyme activity | – | 10 µM | reference: untreated | remaining activity | 85% |
| OC(Cn1cncn1)(Cn1cncn1)c1ccc(F)cc1F | – | perpetrator, refers to: fluvastatin | human | dose not given | reference: without compound | AUC increase | 84% |

Excerpt of the above:
| Structure (SMILES) | tested on | assay | system | conditions | scale | measurement | result |
| --- | --- | --- | --- | --- | --- | --- | --- |
| C1=C/COCc2cc(ccc2OCCN2CCCC2)Nc2nccc(n2)-c2cccc(c2)COC/1 | – | – | human | dose not given, with: rifampicin | reference: without rifampicin | AUC decrease | 90% |
